Published values from different studies.
± gives the spread as reported.
Oprd1: Delta-type opioid receptor (Oprd1, Rattus norvegicus, UniProt P33533)
Sequence of UniProt P33533 (whole entry, looked up): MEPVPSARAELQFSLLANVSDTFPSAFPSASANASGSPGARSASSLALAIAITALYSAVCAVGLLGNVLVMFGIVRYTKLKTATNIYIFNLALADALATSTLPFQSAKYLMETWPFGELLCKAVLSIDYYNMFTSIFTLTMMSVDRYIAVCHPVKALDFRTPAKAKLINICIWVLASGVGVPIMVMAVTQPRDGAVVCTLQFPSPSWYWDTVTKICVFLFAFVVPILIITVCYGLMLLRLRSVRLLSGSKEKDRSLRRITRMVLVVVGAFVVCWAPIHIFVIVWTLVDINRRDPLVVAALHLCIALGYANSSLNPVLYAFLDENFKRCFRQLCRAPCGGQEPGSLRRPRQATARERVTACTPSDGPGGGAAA
SYK: Tyrosine-protein kinase SYK (SYK, Homo sapiens, UniProt P43405)
CPL: CPL (Toxoplasma gondii, UniProt Q6DMN0)
Aminopeptidase N: Aminopeptidase N (Neisseria meningitidis, UniProt Q9JYV4)
Sequence of UniProt P51878 (whole entry, looked up): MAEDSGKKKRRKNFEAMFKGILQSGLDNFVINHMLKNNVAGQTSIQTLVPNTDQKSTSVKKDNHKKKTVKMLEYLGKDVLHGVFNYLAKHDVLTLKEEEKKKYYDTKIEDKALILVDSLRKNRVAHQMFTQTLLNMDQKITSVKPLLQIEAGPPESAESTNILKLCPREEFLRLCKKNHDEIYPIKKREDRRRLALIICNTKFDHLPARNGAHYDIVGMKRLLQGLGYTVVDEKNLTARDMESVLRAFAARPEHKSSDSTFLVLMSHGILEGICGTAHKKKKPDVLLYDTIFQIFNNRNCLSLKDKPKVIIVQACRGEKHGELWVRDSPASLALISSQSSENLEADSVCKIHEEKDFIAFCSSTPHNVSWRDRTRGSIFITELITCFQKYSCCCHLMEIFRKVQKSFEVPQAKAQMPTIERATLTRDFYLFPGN
Sequence of UniProt P31948 (whole entry, looked up): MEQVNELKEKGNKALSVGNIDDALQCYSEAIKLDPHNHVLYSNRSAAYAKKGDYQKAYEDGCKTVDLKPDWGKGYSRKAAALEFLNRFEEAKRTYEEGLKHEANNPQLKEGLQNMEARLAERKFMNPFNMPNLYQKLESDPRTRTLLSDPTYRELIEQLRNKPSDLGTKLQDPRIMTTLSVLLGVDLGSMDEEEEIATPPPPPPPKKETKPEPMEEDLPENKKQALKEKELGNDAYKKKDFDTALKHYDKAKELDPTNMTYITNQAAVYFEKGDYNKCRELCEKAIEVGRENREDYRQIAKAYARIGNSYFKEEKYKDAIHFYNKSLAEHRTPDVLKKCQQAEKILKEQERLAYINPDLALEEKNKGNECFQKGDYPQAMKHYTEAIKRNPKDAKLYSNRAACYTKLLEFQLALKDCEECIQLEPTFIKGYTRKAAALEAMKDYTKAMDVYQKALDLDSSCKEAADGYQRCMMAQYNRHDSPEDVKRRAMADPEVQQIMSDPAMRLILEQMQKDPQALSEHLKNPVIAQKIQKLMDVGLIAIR
Sequence of UniProt P08482 (whole entry, looked up): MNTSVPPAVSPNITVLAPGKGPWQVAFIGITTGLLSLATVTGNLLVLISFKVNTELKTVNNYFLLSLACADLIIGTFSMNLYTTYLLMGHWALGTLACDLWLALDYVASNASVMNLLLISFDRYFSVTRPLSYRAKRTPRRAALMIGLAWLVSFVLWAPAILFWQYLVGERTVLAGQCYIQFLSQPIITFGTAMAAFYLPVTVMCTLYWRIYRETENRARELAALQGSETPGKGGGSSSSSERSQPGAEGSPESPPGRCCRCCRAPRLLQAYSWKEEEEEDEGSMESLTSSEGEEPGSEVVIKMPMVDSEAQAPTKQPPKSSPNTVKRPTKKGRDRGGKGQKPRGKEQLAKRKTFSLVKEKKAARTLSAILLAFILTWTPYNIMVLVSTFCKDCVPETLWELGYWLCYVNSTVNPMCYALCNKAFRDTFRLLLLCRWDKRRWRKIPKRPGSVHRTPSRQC
Sequence of UniProt P21554 (whole entry, looked up): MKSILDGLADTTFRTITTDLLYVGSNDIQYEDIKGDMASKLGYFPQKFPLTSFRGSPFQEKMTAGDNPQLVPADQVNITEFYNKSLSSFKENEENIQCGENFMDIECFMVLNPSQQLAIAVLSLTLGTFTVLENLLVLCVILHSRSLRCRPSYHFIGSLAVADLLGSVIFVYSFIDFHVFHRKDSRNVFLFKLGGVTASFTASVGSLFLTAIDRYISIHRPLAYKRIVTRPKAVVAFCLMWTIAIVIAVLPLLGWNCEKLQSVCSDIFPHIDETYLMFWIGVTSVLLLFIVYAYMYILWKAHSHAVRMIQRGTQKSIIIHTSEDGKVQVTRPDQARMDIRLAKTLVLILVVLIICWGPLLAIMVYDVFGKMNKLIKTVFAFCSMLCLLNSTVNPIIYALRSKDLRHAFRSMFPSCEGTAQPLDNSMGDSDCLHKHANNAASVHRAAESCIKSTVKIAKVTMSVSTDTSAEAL
Sequence of UniProt P17931 (whole entry, unmodified, looked up): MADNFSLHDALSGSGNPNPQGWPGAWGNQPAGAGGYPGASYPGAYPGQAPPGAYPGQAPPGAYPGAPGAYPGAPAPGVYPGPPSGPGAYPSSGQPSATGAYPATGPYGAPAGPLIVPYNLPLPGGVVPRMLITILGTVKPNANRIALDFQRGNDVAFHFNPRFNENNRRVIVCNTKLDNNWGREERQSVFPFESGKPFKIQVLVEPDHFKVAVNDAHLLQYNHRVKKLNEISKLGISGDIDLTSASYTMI
Sequence of UniProt Q62968 (whole entry, looked up): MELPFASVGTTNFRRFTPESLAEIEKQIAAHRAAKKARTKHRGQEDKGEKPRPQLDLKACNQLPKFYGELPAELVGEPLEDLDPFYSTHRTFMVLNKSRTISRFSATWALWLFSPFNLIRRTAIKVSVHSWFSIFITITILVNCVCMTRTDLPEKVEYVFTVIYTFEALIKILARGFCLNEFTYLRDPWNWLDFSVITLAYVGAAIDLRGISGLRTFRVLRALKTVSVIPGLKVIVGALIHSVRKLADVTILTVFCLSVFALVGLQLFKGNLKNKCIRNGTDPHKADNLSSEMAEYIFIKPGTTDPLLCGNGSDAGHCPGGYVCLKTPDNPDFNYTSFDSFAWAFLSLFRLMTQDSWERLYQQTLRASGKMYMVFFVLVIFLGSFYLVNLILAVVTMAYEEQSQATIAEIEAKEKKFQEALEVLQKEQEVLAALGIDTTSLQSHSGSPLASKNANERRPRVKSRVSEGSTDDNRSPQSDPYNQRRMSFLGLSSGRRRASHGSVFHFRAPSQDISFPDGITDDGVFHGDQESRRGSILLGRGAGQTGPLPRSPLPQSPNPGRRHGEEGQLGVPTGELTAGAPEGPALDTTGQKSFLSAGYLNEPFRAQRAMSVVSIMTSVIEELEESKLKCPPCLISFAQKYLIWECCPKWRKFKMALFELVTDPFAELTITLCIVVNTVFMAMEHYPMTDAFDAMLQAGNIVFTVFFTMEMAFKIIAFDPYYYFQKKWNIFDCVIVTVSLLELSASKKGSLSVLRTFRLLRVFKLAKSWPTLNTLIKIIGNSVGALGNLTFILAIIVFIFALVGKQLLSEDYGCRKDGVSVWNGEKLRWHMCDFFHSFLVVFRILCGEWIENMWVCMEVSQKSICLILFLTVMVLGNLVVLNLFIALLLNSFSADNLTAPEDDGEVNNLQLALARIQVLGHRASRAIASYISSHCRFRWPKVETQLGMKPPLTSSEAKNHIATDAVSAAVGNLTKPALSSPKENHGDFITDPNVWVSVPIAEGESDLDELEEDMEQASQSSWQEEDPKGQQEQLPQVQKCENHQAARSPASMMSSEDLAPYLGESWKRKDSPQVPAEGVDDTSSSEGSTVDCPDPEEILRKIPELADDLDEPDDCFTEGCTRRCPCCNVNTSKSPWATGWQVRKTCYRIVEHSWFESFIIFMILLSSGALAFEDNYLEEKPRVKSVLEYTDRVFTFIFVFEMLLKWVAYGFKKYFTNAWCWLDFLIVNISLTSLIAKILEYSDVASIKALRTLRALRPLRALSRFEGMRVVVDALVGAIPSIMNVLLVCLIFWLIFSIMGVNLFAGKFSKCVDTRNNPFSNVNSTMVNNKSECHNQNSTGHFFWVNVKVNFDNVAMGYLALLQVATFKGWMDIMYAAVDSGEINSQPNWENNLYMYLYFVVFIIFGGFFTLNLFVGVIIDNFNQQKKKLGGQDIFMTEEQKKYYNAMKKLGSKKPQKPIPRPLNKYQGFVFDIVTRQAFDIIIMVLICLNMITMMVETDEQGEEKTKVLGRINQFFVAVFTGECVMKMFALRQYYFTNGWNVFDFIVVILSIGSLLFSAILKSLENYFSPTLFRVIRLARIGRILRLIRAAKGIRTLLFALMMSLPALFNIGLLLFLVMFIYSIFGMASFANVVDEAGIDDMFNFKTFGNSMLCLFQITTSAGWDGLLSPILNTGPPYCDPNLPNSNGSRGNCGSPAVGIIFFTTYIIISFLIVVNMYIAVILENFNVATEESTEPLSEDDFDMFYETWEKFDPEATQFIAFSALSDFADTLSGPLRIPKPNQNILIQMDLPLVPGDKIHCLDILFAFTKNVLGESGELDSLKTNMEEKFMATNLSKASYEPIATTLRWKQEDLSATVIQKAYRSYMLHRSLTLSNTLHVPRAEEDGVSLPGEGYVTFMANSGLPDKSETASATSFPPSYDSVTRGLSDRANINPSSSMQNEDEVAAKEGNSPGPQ
Sequence of UniProt P41143 (whole entry, looked up): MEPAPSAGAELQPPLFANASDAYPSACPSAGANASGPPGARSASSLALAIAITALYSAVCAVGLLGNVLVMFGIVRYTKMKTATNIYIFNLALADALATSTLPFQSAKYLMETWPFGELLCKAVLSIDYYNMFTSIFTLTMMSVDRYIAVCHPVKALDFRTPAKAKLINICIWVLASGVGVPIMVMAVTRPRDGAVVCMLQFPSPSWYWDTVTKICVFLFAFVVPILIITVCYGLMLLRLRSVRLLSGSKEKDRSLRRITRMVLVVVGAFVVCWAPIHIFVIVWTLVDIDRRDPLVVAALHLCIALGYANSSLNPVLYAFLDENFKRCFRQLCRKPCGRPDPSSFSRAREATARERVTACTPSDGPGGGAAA

SMILES	target	assay	test system	setting	how to read	quantity	result
CC(=O)N[C@H]1C(O)O[C@H](CO)[C@@H](O[C@@H]2O[C@H](CO)[C@H](O)[C@H](O)[C@H]2O)[C@@H]1O (stereo partly shown)	Galectin-3 (LGALS3, Homo sapiens, UniProt P17931)	binding, isothermal titration calorimetry				–ΔG	6.1 kcal/mol
CC(=O)N[C@@H](CC(C)C)C(=O)N[C@@H](CCC(=O)O)C(=O)N[C@@H](Cc1c[nH]cn1)C(=O)N[C@@H](CC(=O)O)C(=O)Nc1ccc2c(C)cc(=O)oc2c1	Caspase-5 (CASP5, Homo sapiens, UniProt P51878)	substrate cleavage, substrate, fluorogenic AMC release		enzyme 0.25 activity units/µL		Vmax	1210 ± 40.9 RFU/min
CCCCCn1c2ccccc2c2cc(C(=O)c3ccncc3)ccc21	Cannabinoid receptor 1 (CNR1, Homo sapiens, UniProt P21554)	cAMP inhibition, agonist, BRET	HEK293 expressing CNR1	added: forskolin	relative to: forskolin alone	Emax	55.3%
Cc1ncsc1-c1ccc(CNC(=O)[C@@H]2C[C@@H](O)CN2C(=O)[C@@H](NC(=O)CCCCCCCCC(=O)N2CCN(c3ncc(-c4cc(NC(=O)c5ccc(F)cc5C(F)(F)F)c(N5C[C@@H](C)N(C)[C@@H](C)C5)cc4F)cn3)CC2)C(C)(C)C)cc1	WD repeat protein WDS (Spodoptera frugiperda, UniProt A0A2H1VC02)	protein degradation, degrader, targeted LC-MS	Sf9			Dmax	37%
Cc1cc(O)cc(C)c1C[C@H](N)C(=O)N1Cc2ccccc2C[C@H]1CN[C@@H](Cc1ccccc1)C(=O)N[C@@H](Cc1ccccc1)C(N)=O	Oprd1	adenylyl cyclase activity, agonist	C6 cells expressing Oprd1	concentration not given, added: forskolin	relative to: forskolin control	remaining activity	65 ± 10%
N[C@@H](Cc1ccc(C(=O)NCCc2ccc3ccccc3c2)cc1)C(=O)N1Cc2ccccc2C[C@H]1C(=O)N[C@@H](Cc1ccccc1)C(=O)N[C@@H](Cc1ccccc1)C(=O)O	Delta-type opioid receptor (OPRD1, Homo sapiens, UniProt P41143)	agonist	HEK293 cells expressing OPRD1			EC50	0.475 nM
CC(=O)NC(Cc1ccc(Br)c(Cl)c1)C(=O)N[C@@H](C)C(=O)N1CCC[C@H]1C(=O)N1CCC[C@H]1C(=O)N[C@@H](CCC(=O)O)C(=O)N[C@@H](Cc1c[nH]cn1)C(=O)N[C@@H](CO)C(=O)N[C@H](C(=O)N[C@@H](C)C(N)=O)[C@@H](C)OP(=O)(O)O (stereo partly shown)	SYK	enzyme activity, inhibitor		10 µM		inhibition	0.03%
Nc1nc2c([C@@H]3O[C@@H]4COP(=O)(O)O[C@H]5[C@@H](O)[C@H](n6cnc7c(=O)[nH]c(N)nc76)O[C@@H]5COP(=O)(O)O[C@H]4[C@H]3O)scc2c(=O)[nH]1	Cyclic di-GMP phosphodiesterase RocR (rocR, Pseudomonas aeruginosa, UniProt Q9HX69)	substrate, HPLC		10 µM, added: 100 nM enzyme		dissociation rate constant k-1	0.033 ± 0.001 s⁻¹
CC(C)OC(=O)c1ccc(OC(=O)C2CCNCC2)cc1	ATP-dependent Clp protease proteolytic subunit (clpP, Staphylococcus aureus, UniProt Q2G036)	enzyme activity, inhibitor				inhibitory concentration	< 1 µM
C[C@H]1Oc2c(c(=O)oc3c2ccc2ccccc23)[C@@H]1C	SYK	enzyme activity, inhibitor, ADP-Glo		5 µM		remaining activity	67 ± 2.7%
CCCCCCCCNP(=O)(Nc1ccccc1)O[C@@H]1O[C@H](CO)[C@@H](O)[C@H](O)[C@H]1F (stereo partly shown)	Lysosomal acid glucosylceramidase (GBA1, Homo sapiens, UniProt P04062)	enzyme activity, irreversible inhibitor		pH 5.5, 37 °C, added: 2,4-dinitrophenyl beta-D-glucopyranoside		inactivation rate constant	0.1 min⁻¹
CC(=O)NCC(=O)N[C@@H](CCCNC(=N)N)C(=O)N[C@@H](CCCCNP(=O)(O)O)C(=O)NCC(=O)NCC(N)=O	Phospholysine phosphohistidine inorganic pyrophosphate phosphatase (LHPP, Homo sapiens, UniProt Q9H008)	enzyme activity		concentration not given, 90 min, pH 7.8, added: substrate 100 µM		substrate hydrolysis	40.7%
O=c1c(O)c(-c2cc(O)ccc2O)oc2cc(O)cc(O)c12	Acetylcholinesterase (ACHE, Homo sapiens, UniProt P22303)	enzyme activity, inhibitor		500 µg/mL		inhibition	71.3 ± 2.57%
CC(C)CCN(Cc1ccccc1C#N)c1nc(C#N)nc(N2CCOCC2)n1	CPL	enzyme activity, inhibitor			relative to: human over Toxoplasma IC50	selectivity ratio	0.5
CSCC[C@H](NC(=O)[C@H](CCCNC(=N)N)NC(=O)[C@H](CO)NC(=O)[C@@H](NC(=O)[C@H](CC(=O)O)NC(=O)[C@H](CC(=O)O)NC(=O)CCCCCNC(=O)c1ccc2c(c1)C(=O)OC21c2ccc(O)cc2Oc2cc(O)ccc21)[C@@H](C)O)C(=O)N[C@@H](CCC(=O)O)C(=O)N[C@@H](CCCCN)C(=O)N[C@H](C(=O)N[C@@H](CC(=O)O)C(=O)O)C(C)C	Stress-induced-phosphoprotein 1 (STIP1, Homo sapiens, UniProt P31948)	fluorescence polarization		pH 7.4	relative to: wild-type tracer	affinity decrease	≥ 3 fold
CCC(C)Sc1nc2c([nH]1)c(=S)n(C)c(=O)n2C (stereo not shown)	Glucocorticoid receptor (Nr3c1, Rattus norvegicus, UniProt P06536)	reporter gene, antagonist, MMTV-luciferase	T47D/A1-2	10 µM, 24 h, added: 5 nM dexamethasone	relative to: maximal activity	remaining activity	86%

SMILES	target	assay	test system	setting	how to read	quantity	result
CCN(Cc1ccccc1)C(=O)CCc1nc(CN2CCN(C(=O)Cc3ccc(OC)c(OC)c3)CC2)no1	Sodium channel protein type 10 subunit alpha (Scn10a, Rattus norvegicus, UniProt Q62968)	whole-cell patch clamp	rat DRG neurons	100 nM		V1/2 of inactivation	-54.4 ± 1.23 mV
CC(C)P(=S)(NP(=[Se])(C(C)C)C(C)C)C(C)C	Alpha-amylase (Bacillus subtilis, UniProt P00691)	fluorescence quenching		concentration not given, 298 K		number of binding sites	0.85 ± 0.09
CCOC(=O)c1cc(Cc2ccccc2)cc2c1NCCC2NC(=O)C(N)Cc1c(C)cc(O)cc1C (stereo not shown)	Oprd1	GTPγS binding, antagonist		added: SNC80		Ke	42.5 nM
CC(C)C[C@H](NC(=O)[C@H](CCC(=O)O)NC(=O)[C@H](C)NC(=O)[C@H](CCC(=O)O)NC(=O)[C@H](CCC(=O)O)NC(=O)[C@H](Cc1c[nH]cn1)NC(=O)[C@H](CCCNC(=N)N)NC(=O)[C@H](CCC(=O)O)NC(=O)[C@H](CC(N)=O)NC(=O)[C@H](CCCCN)NC(=O)[C@H](CC(C)C)NC(=O)[C@H](CCCNC(=N)N)NC(=O)[C@H](CCC(N)=O)NC(=O)[C@H](CC(C)C)NC(=O)[C@H](CCC(=O)O)NC(=O)[C@H](C)NC(=O)[C@H](CC(N)=O)NC(=O)[C@H](C)NC(=O)[C@@H](NC(=O)[C@H](CC(C)C)NC(=O)[C@H](CCCCN)NC(=O)[C@H](CCC(=O)O)NC(=O)[C@@H](NC(=O)[C@H](CO)NC(=O)CN)C(C)C)[C@@H](C)O)C(=O)N[C@@H](CCC(=O)O)C(=O)N[C@@H](CCCNC(=N)N)C(=O)N[C@@H](CC(C)C)C(=O)N[C@@H](CCCCN)C(=O)N[C@@H](CO)C(=O)N[C@@H](CCC(=O)O)C(=O)N[C@@H](Cc1ccc(O)cc1)C(=O)O	Plasminogen (PLG, Homo sapiens, UniProt P00747, C188G/E240D/L256Y)	binding, SPR		pH 7.4		koff	0.0704 s⁻¹
CC(C)CCN(CCCc1ccccc1)c1nc(C#N)nc(N2CCOCC2)n1	CPL	enzyme activity, inhibitor			relative to: human over Toxoplasma IC50	selectivity ratio	0.2
CC(C)C[C@H](NC(=O)[C@@H]1CCCN1C(=O)[C@H](CCCCN)NC(=O)C[C@@H]1O[C@@H](C)[C@@H](O)[C@@H](O)[C@@H]1O)C(=O)NCCCC[C@H](NC(=O)[C@H](CC(C)C)NC(=O)[C@@H]1CCCN1C(=O)[C@H](CCCCN)NC(=O)C[C@@H]1O[C@@H](C)[C@@H](O)[C@@H](O)[C@@H]1O)C(=O)N[C@@H](Cc1ccccc1)C(=O)N[C@@H](CS)C(N)=O	Fucose-binding lectin PA-IIL (lecB, Pseudomonas aeruginosa, UniProt Q9HYN5)	binding, isothermal titration calorimetry		divided by fucoside copies	relative to: monovalent fucoside KD over ligand KD	relative potency per fucoside	1.3
CS(C)(=O)=Nc1ccc(-c2ccc(-c3nc4cc(O[C@@H]5CO[C@H]6[C@@H]5OC[C@H]6O)[nH]c4cc3F)cc2)cc1	PRKAB2/PRKAA1, with gamma1 subunit (Homo sapiens, UniProt O43741+Q13131)	enzyme activity, activator		60 min, 50% above basal activity, added: ATP 50 µM		EC150	0.384 nM
CCOC(=O)C(=Cc1cccc(C(N)=O)c1)C(=O)OCC	Genome polyprotein, 3C protease (Human enterovirus D68, UniProt Q68T42, C1641Y/I1565V/I1594T/R1603K/Y1579H)	isothermal titration calorimetry	enterovirus D68	concentration not given		binding	no binding
C=C(C)C(=O)Oc1ccc(C(C)(C)c2ccc(OC(=O)C(=C)C)cc2)cc1	Aromatase (CYP19A1, Homo sapiens, UniProt P11511)	inhibitor, tritiated water release	JEG-3	18 h		maximal effect concentration	100 µM
NC(=O)Cc1cc(=O)oc2cc(NC(=O)[C@@H](N)CCOCc3ccccc3)ccc12	Aminopeptidase N	enzyme activity, substrate		pH 7.5, 37 °C		Km	147 ± 7.9 µM
C=C(F)C(=O)N1CCN(c2nc(OC[C@@H]3CCCN3CCCOCCC(=O)N[C@H](C(=O)N3C[C@@H](O)C[C@H]3C(=O)NCc3ccc(-c4scnc4C)cc3)C(C)(C)C)nc3c2CCN(c2cccc4cccc(Cl)c24)C3)C[C@@H]1CC#N	GTPase KRas (KRAS, Homo sapiens, UniProt P01116, G12C)	immunoblot band shift	NCI-H2030	2.5 µM		time to target engagement	≤ 1 h
CC(C)C[C@H](N)C(=O)Nc1ccc2c(CC(N)=O)cc(=O)oc2c1	Aminopeptidase N	enzyme activity, substrate		pH 7.5, 37 °C		Km	85.4 ± 0.5 µM
CC[C@H](C)[C@H](NC(=O)[C@H](C)NC(=O)[C@H](CCCNC(=N)N)NC(=O)[C@@H](NC(=O)[C@H](CCCCN)NC(=O)[C@H](CC(N)=O)NC(=O)[C@H](CCCNC(=N)N)NC(=O)[C@@H](NC(=O)[C@@H](NC(=O)[C@H](CCC(=O)O)NC(=O)[C@H](CCCCN)NC(=O)[C@H](CCCNC(=N)N)NC(=O)[C@H](C)NC(=S)Nc1ccc2c(c1)C(=O)OC21c2ccc(O)cc2Oc2cc(O)ccc21)[C@@H](C)CC)[C@@H](C)CC)[C@@H](C)CC)C(=O)NCC(=O)N[C@@H](CCCCN)C(=O)N[C@@H](CCSC)C(=O)N[C@@H](C)C(=O)N[C@@H](CCCNC(=N)N)C(=O)N[C@H](C(=O)N[C@@H](Cc1ccccc1)C(=O)N[C@@H](CO)C(=O)N[C@H](C(=O)N[C@@H](CC(C)C)C(=O)N[C@@H](CCCNC(=N)N)C(=O)O)C(C)C)C(C)C	Calmodulin, C-terminal domain (CAM, Paramecium tetraurelia, UniProt P07463)	binding, fluorescence anisotropy	Paramecium		relative to: Ca2+-saturated over apo	Kd ratio	~50 fold
CC[C@@H](C)[C@@H](NC(=O)[C@@H](CC(N)=O)NC(=O)[C@@H](CC(N)=O)NC(=O)[C@H](N)CCCNC(N)=O)C(=O)N1C[C@@H](n2cc([C]34[CH]5[CH]6[CH]7[CH]3[Fe]6754389%10[CH]4[CH]3[CH]8[CH]9[CH]4%10)nn2)C[C@H]1C(=O)N[C@@H](Cc1csc2ccccc12)C(=O)N[C@H](CO)C(N)=O (stereo partly shown)	Envelope glycoprotein gp160 (env, Human immunodeficiency virus type 1 group M subtype B, UniProt P35961)	ITC		concentration not given, pH 7.4, 25 °C		binding enthalpy	-14.6 ± 1.7 kcal/mol
Cn1ccc(-c2ccc(Cn3cc(C(=O)N[C@H]4CCCC[C@@H]4O)c4c(F)cc(F)cc43)cn2)n1	Muscarinic acetylcholine receptor M1 (Chrm1, Rattus norvegicus, UniProt P08482)	calcium mobilization, agonist	CHO cells		relative to: ACh maximum	maximum response	65 ± 9%
